Assay results collected from several papers.
Every numbered part comes from another study and shows a few of its results, in no order. “And” joins repeats or separate records; there may be more than shown.
Sequence of UniProt Q99640 (whole entry, looked up): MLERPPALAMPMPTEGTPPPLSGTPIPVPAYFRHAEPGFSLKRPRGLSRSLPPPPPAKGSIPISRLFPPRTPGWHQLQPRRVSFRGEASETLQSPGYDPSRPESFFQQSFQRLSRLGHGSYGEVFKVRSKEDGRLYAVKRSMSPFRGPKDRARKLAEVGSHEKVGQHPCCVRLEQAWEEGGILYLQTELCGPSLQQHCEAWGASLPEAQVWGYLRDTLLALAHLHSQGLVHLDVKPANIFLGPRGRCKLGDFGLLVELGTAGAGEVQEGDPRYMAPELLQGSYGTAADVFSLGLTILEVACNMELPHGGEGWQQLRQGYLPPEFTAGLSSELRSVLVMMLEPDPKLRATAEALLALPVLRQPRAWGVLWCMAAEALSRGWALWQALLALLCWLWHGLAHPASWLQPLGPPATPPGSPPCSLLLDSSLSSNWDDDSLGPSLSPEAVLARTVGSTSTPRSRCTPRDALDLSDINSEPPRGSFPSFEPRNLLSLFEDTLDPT

Block 1
Structure (SMILES): Cc1ncsc1-c1ccc(C2(NC(=O)C3CC(O)CN3C(=O)C(NC(=O)c3ccc(COc4c(-c5c(C)c(F)cc6[nH]ncc56)c(C5CC5)cc5c(N6CC7CC6CN7)nc(OC6CCOCC6)nc45)cc3)C(C)C)CC2)cc1 (stereo not drawn)
Cell line: AsPC-1
Technique: in-cell ELISA
10 µM, individual replicates — phospho-ERK1/2 level: 9.76% and 9.34% and 6.75% and 9.11% and 9.69% and 11.3%.
It gave 10.1% and 9.91% and 10.4% and 9.34% and 7.26% and 10.6% for phospho-ERK1/2 level (3 µM, individual replicates).
The phospho-ERK1/2 level was 106% and 90.6% and 93.8% and 93% (300 pM, individual replicates).
It gave 88.8% and 103% and 98.5% for phospho-ERK1/2 level (1 nM, per-experiment values).
It gave 72.6% and 61.3% and 58.3% and 71.2% and 82.6% and 69.7% for phospho-ERK1/2 level (100 nM, individual replicates).
30 nM, individual replicates — phospho-ERK1/2 level: 88.5% and 89% and 87.6% and 86.7% and 86.2% and 97.9%.
3 nM, individual replicates — phospho-ERK1/2 level: 86.4% and 96.2% and 94.3% and 99.4% and 102%.
For 1 µM, individual replicates: phospho-ERK1/2 level read 9.11% and 11.9% and 8.98% and 11.5% and 11.7% and 9.87%.

Block 2
SMILES: CCN1/C(=C/C=C2\CCCC(/C=C/C3=[N+](CC)c4ccccc4C3(C)C)=C2NCCCCCCCCN2CCC(Nc3nc4ccccc4n3Cc3ccc(F)cc3)CC2)C(C)(C)c2ccccc21
Cell line: U-87 MG
Concentration: concentration not given
Reference: DMSO
It gave 1.59 for “log2 fold change” (refers to: TMEM232 mRNA).
The “log2 fold change” was -1.17 (refers to: GLI2 mRNA).
For refers to: STX11 mRNA: “log2 fold change” read 3.83.
For refers to: PCDHGC3 mRNA: “log2 fold change” read -1.23.
The “log2 fold change” was -3.16 (refers to: LRRC17 mRNA).
refers to: ATXN1 mRNA — “log2 fold change”: 0.935.
refers to: RECQL4 mRNA — “log2 fold change”: -1.67.
refers to: IL11 mRNA — “log2 fold change”: 1.44.
refers to: PARP1 mRNA — “log2 fold change”: -1.33.
It gave 2.3 for “log2 fold change” (refers to: DNAJB1 mRNA).
It gave 0.938 for “log2 fold change” (refers to: RGPD6 mRNA).
It gave -2.39 for “log2 fold change” (refers to: RNF112 mRNA).
refers to: TRIM55 mRNA — “log2 fold change”: -3.09.
For refers to: LPO mRNA: “log2 fold change” read 3.22.
It gave -0.894 for “log2 fold change” (refers to: MMP16 mRNA).
For refers to: MAP7 mRNA: “log2 fold change” read 2.46.

Block 3
SMILES: C[C@@H]1CN(c2ccc(-c3cc(C(=O)NCCOCCOCCOCCOCCNC(=O)Cn4cc(-c5[nH]cc(C(=O)N[C@@H](CC(N)=O)c6ccc(F)c(Cl)c6)c5-c5ccc(Cl)cc5F)cn4)ccc3F)cc2NC(=O)c2c[nH]c(=O)cc2C(F)(F)F)C[C@H](C)N1C
Read-out: thermal unfolding
Technique: differential scanning fluorimetry
Concentration: 5.5 µM
Reading: higher = more unfolded
DCAF1: DDB1- and CUL4-associated factor 1 (DCAF1, Homo sapiens, UniProt Q9Y4B6)
Sequence of UniProt Q9Y4B6 (whole entry, looked up): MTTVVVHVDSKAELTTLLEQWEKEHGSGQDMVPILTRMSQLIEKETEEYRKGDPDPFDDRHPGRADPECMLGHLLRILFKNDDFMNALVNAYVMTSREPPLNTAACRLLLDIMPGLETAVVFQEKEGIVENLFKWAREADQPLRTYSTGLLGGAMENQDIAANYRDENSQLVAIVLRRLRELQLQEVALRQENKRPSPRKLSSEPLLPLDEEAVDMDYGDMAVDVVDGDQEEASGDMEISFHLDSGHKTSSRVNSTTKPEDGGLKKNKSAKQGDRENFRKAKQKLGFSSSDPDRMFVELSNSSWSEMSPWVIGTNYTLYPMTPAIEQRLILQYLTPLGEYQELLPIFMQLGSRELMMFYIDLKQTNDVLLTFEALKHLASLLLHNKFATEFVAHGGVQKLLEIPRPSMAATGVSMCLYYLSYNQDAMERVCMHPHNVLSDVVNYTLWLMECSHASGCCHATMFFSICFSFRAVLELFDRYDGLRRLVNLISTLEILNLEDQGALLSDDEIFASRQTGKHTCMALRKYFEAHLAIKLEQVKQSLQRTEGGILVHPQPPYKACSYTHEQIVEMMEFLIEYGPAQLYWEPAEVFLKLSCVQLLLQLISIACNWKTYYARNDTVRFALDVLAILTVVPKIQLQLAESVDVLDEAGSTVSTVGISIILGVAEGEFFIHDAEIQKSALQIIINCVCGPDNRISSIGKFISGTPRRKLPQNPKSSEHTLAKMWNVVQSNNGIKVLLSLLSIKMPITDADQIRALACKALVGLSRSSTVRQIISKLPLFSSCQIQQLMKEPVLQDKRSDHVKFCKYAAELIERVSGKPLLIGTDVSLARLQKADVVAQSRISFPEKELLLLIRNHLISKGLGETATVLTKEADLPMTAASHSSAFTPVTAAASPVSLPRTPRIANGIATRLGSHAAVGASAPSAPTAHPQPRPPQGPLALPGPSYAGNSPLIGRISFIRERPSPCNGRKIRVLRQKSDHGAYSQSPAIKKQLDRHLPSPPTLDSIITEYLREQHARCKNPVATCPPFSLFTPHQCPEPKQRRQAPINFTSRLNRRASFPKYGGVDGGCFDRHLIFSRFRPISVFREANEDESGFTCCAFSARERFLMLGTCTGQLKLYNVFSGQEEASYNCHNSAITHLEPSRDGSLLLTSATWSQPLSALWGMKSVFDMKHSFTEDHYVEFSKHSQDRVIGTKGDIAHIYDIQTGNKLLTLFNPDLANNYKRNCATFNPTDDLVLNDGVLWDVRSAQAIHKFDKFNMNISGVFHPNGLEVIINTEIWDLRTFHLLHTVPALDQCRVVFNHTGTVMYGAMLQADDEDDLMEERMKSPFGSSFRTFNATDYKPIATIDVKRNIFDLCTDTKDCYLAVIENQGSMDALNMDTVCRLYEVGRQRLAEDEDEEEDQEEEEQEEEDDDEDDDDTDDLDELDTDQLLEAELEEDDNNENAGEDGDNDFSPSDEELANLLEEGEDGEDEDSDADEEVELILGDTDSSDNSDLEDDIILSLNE
WDR5: WD repeat-containing protein 5 (WDR5, Homo sapiens, UniProt P61964)
The “SYPRO Orange fluorescence” was 8570 a.u. (DCAF1; 34 °C).
For DCAF1; 92.41 °C: “SYPRO Orange fluorescence” read 32800 a.u.
The “SYPRO Orange fluorescence” was 18400 a.u. (DCAF1; 54.41 °C).
For WDR5; 79.41 °C: “SYPRO Orange fluorescence” read 21400 a.u.
The “SYPRO Orange fluorescence” was 33600 a.u. (DCAF1; 91.61 °C).
It gave 15000 a.u. for “SYPRO Orange fluorescence” (WDR5; 29.8 °C).
The “SYPRO Orange fluorescence” was 14500 a.u. (WDR5; 44.2 °C).
DCAF1; 68.81 °C — “SYPRO Orange fluorescence”: 55500 a.u.
It gave 43500 a.u. for “SYPRO Orange fluorescence” (WDR5; 89.41 °C).
It gave 11300 a.u. for “SYPRO Orange fluorescence” (DCAF1; 42.8 °C).
WDR5; 82.21 °C — “SYPRO Orange fluorescence”: 30600 a.u.

Further values, each from its own experiment
Under “pCDK1 (Thr14) level”, `Cc1ncc(-c2cc3c(N)c(-c4c(C)ccc(O)c4C)cnc3[nH]2)cn1` is recorded as 28.6 RLU and 22.5 RLU (HCC1569; in-cell western, refers to: CDK1 phospho-Thr14; 3333.33 nM).
For `Cc1ccc(O)c(C)c1-c1cnc2[nH]c(-c3cnc(N)nc3)cc2c1C#N`, “number of kinases bound” read 5 (KINOMEscan; 403 non-mutant kinase panel; 1000 nM, percent of control below 10).
With `Cc1ccc(O)c(C)c1-c1cnc2[nH]c(-c3cnc(N4CCC(CN5CCN(c6cc7c(cc6F)n(C6CCC(=O)NC6=O)c(=O)n7C)CC5)CC4)nc3)cc2c1C#N` (stereo not drawn) the degradation was 75.3% (Membrane-associated tyrosine- and threonine-specific cdc2-inhibitory kinase (PKMYT1, Homo sapiens, UniProt Q99640); degrader, automated immunoblot; HCC1569; 1.00 nM).
With `Cc1ccc(O)c(C)c1-c1cnc2[nH]c(-c3cnc(N4CCC5(CC4)CC(N4CCN(c6ccc(NC7CCC(=O)NC7=O)cc6F)CC4)CO5)nc3)cc2c1C#N` (stereo not drawn) the IC50 was 29 nM (HuCCT-1; CDK1 phosphorylation, refers to: CDK1 phospho-Thr14).

For quick reference, copied from above (block 3):
DCAF1; 68.81 °C — “SYPRO Orange fluorescence”: 55500 a.u.
The “SYPRO Orange fluorescence” was 33600 a.u. (DCAF1; 91.61 °C).
It gave 43500 a.u. for “SYPRO Orange fluorescence” (WDR5; 89.41 °C).
The “SYPRO Orange fluorescence” was 18400 a.u. (DCAF1; 54.41 °C).
